Published values of several laboratories.
Protocols differ between the studies behind these lines. ± marks the error that the study gave.
B1: UGT1A9 (Homo sapiens, UniProt O60656); chain GKLLVVPMDGSHWFTMRSVVEKLILRGHEVVVVMPEVSWQLGRSLNCTVKTYSTSYTLEDLDREFKAFAHAQWKAQVRSIYSLLMGSYNDIFDLFFSNCRSLFKDKKLVEYLKESSFDAVFLDPFDNCGLIVAKYFSLPSVVFARGILCHYLEEGAQCPAPLSYVPRILLGFSDAMTFKERVRNHIMHLEEHLLCHRFFKNALEIASEILQTPVTEYDLYSHTSIWLLRTDFVLDYPKPVMPNMIFIGGINCHQGKPLPMEFEAYINASGEHGIVVFSLGSMVSEIPEKKAMAIADALGKIPQTVLWRYTGTRPSNLANNTILVKWLPQNDLLGHPMTRAFITHAGSHGVYESICNGVPMVMMPLFGDQMDNAKRMETKGAGVTLNVLEMTSEDLENALKAVINDKSYKENIMRLSSLHKDRPVEPLDLAVFWVEFVMRHKGAPHLRPAAHDLTWYQYHSLDVIGFLLAVVLTVAFITFKCCAYGYRKCLGKKGRVKKAHKSKTH
Chain of UniProt P06224 (whole entry, looked up): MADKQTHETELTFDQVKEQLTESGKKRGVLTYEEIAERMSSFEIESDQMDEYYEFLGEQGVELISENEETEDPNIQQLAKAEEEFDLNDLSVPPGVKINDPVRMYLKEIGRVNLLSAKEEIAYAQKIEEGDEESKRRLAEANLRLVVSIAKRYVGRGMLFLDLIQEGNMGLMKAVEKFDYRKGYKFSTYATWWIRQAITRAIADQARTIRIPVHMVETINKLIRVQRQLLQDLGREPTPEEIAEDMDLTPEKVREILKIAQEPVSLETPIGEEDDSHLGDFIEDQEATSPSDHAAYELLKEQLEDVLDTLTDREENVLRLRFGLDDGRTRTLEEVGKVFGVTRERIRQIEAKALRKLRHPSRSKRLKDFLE
Chain of UniProt Q9LPI7 (whole entry, looked up): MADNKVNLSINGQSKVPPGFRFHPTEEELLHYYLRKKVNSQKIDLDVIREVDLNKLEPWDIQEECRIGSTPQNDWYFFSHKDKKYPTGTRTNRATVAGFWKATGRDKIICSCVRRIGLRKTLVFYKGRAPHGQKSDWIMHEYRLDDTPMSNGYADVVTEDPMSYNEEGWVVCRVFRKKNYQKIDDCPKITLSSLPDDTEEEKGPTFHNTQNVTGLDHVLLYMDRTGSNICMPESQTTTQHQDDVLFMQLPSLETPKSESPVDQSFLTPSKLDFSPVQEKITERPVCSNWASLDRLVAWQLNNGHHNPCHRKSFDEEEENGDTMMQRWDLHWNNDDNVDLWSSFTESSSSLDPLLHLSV
Chain of UniProt Q15717 (whole entry, looked up): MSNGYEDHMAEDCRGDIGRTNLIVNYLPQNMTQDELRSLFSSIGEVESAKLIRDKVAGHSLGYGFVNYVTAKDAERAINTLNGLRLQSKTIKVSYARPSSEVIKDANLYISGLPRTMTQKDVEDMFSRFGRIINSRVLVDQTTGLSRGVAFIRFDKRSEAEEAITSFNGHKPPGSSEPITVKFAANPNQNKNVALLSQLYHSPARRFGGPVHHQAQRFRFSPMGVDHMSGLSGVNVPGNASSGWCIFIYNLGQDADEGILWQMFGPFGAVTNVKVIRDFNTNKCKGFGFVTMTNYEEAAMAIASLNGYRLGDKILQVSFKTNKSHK
Chain of UniProt P19466 (whole entry, unmodified, looked up): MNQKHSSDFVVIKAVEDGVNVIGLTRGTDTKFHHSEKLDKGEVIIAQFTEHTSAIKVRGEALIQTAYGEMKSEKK
Chain of UniProt Q04609 (whole entry, looked up): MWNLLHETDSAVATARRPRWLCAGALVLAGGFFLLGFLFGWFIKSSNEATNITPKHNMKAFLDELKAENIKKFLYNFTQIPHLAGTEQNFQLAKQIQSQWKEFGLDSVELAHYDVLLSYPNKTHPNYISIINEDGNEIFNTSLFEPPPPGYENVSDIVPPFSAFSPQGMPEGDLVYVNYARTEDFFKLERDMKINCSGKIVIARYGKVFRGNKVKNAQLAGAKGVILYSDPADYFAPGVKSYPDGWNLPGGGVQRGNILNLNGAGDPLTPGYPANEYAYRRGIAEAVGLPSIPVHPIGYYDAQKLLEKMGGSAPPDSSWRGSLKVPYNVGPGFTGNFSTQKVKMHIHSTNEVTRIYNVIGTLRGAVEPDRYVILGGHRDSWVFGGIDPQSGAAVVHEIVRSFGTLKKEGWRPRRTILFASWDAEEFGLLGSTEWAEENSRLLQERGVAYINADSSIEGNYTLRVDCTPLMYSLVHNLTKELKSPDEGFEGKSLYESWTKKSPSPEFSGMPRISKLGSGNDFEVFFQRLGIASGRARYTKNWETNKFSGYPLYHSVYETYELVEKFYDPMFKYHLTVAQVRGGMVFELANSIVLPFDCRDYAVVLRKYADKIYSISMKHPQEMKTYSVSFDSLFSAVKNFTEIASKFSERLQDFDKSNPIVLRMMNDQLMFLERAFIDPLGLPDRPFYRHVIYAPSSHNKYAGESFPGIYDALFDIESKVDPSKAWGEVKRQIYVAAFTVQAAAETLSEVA
Chain of UniProt Q91YE5 (whole entry, looked up): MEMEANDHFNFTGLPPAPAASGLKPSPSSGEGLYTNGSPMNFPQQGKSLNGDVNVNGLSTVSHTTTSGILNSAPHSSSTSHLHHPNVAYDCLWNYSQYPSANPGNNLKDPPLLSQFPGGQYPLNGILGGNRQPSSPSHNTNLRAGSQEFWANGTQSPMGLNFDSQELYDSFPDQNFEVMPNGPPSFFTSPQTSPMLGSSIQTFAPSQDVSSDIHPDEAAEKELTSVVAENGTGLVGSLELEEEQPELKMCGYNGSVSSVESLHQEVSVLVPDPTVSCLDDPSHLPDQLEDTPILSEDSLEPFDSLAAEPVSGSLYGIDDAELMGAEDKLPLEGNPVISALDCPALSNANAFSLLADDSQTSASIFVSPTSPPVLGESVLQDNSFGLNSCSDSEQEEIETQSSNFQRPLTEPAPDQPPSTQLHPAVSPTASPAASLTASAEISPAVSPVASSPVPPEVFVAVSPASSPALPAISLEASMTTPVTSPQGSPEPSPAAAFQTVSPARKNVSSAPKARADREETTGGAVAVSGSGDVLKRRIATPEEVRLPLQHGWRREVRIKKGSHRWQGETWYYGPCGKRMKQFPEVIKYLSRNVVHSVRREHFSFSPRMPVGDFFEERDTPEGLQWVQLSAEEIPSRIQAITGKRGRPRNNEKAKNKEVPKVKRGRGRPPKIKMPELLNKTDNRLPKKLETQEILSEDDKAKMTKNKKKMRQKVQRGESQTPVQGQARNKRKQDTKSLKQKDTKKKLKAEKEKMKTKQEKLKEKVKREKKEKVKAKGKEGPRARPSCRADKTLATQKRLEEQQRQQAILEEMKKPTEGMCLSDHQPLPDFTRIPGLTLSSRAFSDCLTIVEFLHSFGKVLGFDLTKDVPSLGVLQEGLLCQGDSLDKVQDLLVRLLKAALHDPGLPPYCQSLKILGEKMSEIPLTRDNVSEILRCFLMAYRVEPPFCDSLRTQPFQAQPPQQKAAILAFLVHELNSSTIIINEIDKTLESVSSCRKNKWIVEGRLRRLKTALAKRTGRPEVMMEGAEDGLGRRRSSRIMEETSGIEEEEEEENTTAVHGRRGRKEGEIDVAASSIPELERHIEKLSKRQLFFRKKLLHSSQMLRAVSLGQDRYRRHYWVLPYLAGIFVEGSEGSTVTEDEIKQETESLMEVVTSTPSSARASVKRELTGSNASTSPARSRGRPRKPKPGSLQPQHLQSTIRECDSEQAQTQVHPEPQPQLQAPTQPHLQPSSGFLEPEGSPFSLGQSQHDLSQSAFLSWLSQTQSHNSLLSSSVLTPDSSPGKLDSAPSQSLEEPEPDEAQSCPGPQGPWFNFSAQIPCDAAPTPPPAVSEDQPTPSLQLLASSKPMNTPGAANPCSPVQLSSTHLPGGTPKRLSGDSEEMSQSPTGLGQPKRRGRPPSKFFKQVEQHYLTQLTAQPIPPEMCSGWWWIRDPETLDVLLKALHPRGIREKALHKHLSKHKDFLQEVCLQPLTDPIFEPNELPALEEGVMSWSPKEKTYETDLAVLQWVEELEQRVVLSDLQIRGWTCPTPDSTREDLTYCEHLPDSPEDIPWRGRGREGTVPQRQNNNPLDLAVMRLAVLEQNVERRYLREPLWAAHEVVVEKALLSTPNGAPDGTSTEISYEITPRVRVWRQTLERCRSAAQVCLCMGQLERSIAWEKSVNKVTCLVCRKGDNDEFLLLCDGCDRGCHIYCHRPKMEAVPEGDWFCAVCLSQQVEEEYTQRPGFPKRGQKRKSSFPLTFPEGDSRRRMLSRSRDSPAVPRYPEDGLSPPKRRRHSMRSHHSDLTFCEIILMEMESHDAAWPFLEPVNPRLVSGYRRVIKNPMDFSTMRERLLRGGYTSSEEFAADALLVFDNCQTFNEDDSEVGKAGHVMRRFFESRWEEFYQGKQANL

With `B1 (UGT1A9)` the Vmax was 0.0054 µmol/min/mg (COc1ccc2oc(-c3ccccc3)c(O)c(=O)c2c1; steady-state kinetics; pH 7.4, 37 °C).
The relative binding of `GGGAGGACGAUGCGGAUCAGCCAUGUUUACGUCACUCCU (RNA aptamer; 2'-F pyrimidines, 3' amine)` is reported as 40.6 ± 3.52% (FOLH1 1-750 (Homo sapiens, UniProt Q04609); flow cytometry; LNCaP; no ultrasound, not purified; baseline: NBs without aptamer, higher = more binding).
`GGGAGACCUAGCCUCAUAUAAUCGUUGUCCAGAAUUGUAUAUAUUCGUAGCAUAAGUUUUCCAAACAUUAUUUUGUUGUCGAAAAUUGUACAUAAGCCAAUUAAGCCGCUAAUUCU (ssRNA)`: binding “no binding” (brat 756-1037 H802L (Drosophila melanogaster, UniProt Q8MQJ9); EMSA).
`TGTGAATAATGAGACAAGACTTATTATATCAGCCTTGATTTGCAGTGTCAAGAGGTAAATGTTTTTATTTATCTCTCGTGACGACTTTTATAATG (dsDNA)`: binding “binds” (sigA 1-371 (Bacillus subtilis, UniProt P06224); EMSA; double-stranded DNA, one strand shown).
With `GAGUUGAGUUGAGUUGAGUUGAGUUGAGUUGAGUUGAGUUGAGUUGAGUUGAGUU (ssRNA; single strand)` the Kd was 126 ± 6 nM (mtrB full length assumed T30V/D39V (Bacillus subtilis, UniProt P19466); filter binding; added: L-tryptophan 1 mM).
With `GAGAAACCGUGUAAACAAAACAUAACUGAGAGG (structured RNA; hairpin, large loop)` the K1/2 was 569 ± 40 nM (BAZ2A eAT-hook (Mus musculus, UniProt Q91YE5); MST; 50 nM RNA).
Under binding, `CTATTTCTCCTGGTAAGGAATCATCTGGTACATTTACATCATTACCACATATTGGACATTTTAATAGTACCATGATGGATCGAATAGAAATATAAAGTAAGCAGTTGAAAAGCTTTTATGAAATAAAAGGTTCGAAATTAGTACCAAACTCTAAGCACTATAGTACTGTTTGTACTTATAACGCCCTG (dsDNA)` is recorded as “binds” (lysM 1-140 (Sulfolobus acidocaldarius, UniProt Q4JAQ1); missing contact interference; double-stranded DNA, one strand shown).
`GGGAAGGGUUUAAACAGUUUGAAAUAUUCUGUCUUCAUUUCUGUAAUAGUUAAUAUCUGGCUGUCCUUUUUAUAAUGCAAAGUGAGAACUUUCCCUACUGUGUUUGAUAAAUGUUGUCCAGGUUCACUUGCCAAGAAUGUGUUGUCUAAAAUG (ssRNA)` — result for binding: “binds” (ELAVL1 full length assumed (Homo sapiens, UniProt Q15717); EMSA).
`GGGGAAUCAAAAAUUUAUUUUUUACACGGAAACGAUGCCACAGUUGACUGAACCUGUCUUCUAACAGUAGUUAAUUGCCAGUAUUUCAAACAAGAUUUGAAAUACGAGUUUCCCAGAAUAAUUUAUUUGGACAGGAUAGGAAGUCCGAUUUCUGUGUUGUCUCAAACGAGGCGAUAGAAUUGGGAUGUCGAAGAAAGUCUGCGUUAGAAUUCGAGCUGGGUACC (structured RNA (Saccharomyces cerevisiae); two hairpins)` has a Kd of 0.7 ± 0.3 nM (CBF5/NOP10/GAR1/NHP2 (Saccharomyces cerevisiae); filter binding).
`GCCTGTTGTGAGCCTCCTAACCGTGCGTATTCGTACTGGAACTGATATCGATGTCCCCATGCTTATTCTTGTCTCCC (ssDNA; three predicted stem loops)` gave a Ki of 123 ± 44 nM (ITGA6/ITGB4 (Homo sapiens); cell adhesion inhibition, competition; PC-3; apparent, not purified).
`GTGTCATAAGAAAGCTTCAAGAGACAGCAACAAGATTTGGTGGAAGAAGGAGACAGCTCAGTGTAGTTAGTGTTTTTATATAATTTAATTGCTTGAGCTTCCAACTTCTACTGTTTGTTATTCTTTTGAGTTCTTTAGAATTTGTATAACTTAGAGTAGCTTTCAAGTTATTATGTATTTCTACTTTAGTCTTACTTAATATTTTGTATCTTATAAACTTTACCAAATCTGG (dsDNA (Arabidopsis thaliana))` — result for binding: “binds” (NAC012 full length assumed (Arabidopsis thaliana, UniProt Q9LPI7); EMSA; double-stranded DNA, one strand shown).
For `GGGAGGACAAAGAAAUACAGAUAUAUCUUAAAAAAAAAAAAGCAUUUUGUAUUAAAGAAUUUAAUUCUGAUCU (ssRNA)`, binding read “binds” (SOD1 fragment G94A (Homo sapiens); EMSA; metallated).

A few entries again:
For `GGGAGGACAAAGAAAUACAGAUAUAUCUUAAAAAAAAAAAAGCAUUUUGUAUUAAAGAAUUUAAUUCUGAUCU (ssRNA)`, binding read “binds” (SOD1 fragment G94A (Homo sapiens); EMSA; metallated).
